Measurements collected from several papers.
Every numbered part comes from another study and shows a few of its results, in no order.

Sample 1
Target: Centromere-binding protein 1, full length, N-terminal tag (CBF1, Saccharomyces cerevisiae, UniProt P17106, residues 1-351)
UniProt P17106, sequence (whole entry, looked up): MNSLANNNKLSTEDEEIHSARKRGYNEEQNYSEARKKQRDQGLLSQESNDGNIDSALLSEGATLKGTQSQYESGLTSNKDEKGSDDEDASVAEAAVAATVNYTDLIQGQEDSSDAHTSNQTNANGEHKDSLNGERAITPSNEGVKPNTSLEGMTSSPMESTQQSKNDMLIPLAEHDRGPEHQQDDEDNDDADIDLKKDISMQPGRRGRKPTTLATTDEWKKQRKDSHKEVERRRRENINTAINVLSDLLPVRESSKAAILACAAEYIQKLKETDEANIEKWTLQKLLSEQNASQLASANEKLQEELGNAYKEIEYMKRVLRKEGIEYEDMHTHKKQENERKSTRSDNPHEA
Method: protein-binding microarray
Molecule type: double-stranded DNA, one strand shown
Matrix: in vitro
Tested at: 0.8 µM
Notes: whole 60-bp probe, no competitor
Reading: higher = stronger binding
Sequence	fluorescence intensity
CCTAACTACTATAGTGATGCGCTATAGCTTCGTACAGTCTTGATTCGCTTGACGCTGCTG	522 a.u.
CTACCCCTATCCCGTCATCAGAGGGGCTAAAGATTCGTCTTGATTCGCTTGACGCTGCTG	490 a.u.
CTAAATAATAAAATCGGGGTGACGCAAGTATGATTCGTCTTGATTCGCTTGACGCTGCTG	538 a.u.
GAAGTTACAAAATTACACGTGACTTTTCTGGTCTAGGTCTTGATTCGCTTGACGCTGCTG	12400 a.u.
CTAATTGGGCGTTAGCAGGTGGTGCCAGTGGATTTCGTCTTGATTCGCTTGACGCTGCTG	529 a.u.
CTATAGAATACTACACGTGCAATCGGTAGCATGTTCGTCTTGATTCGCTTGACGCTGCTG	3650 a.u.
GAATCATACCAACGTCACGTGTAAAGCTTTTGCTAGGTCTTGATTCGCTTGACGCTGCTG	9310 a.u.
GAATAGTAGACTTTTCACGTCATTGTTAGAAGTTAGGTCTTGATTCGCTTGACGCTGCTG	520 a.u.
TGTACGAAGCTATTAAGTGTGATTATAGTAGTTAGGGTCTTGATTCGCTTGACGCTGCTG	519 a.u.
CTATCACCGCTTTACCACGCAAAGATATCTGGATTCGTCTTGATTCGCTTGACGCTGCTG	546 a.u.
CTATCATCGTATATTTCCGTGATTGCTCCTTTCTTCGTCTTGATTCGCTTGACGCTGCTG	541 a.u.
GAAAGCCGAGCATCAAGCATGACCACTTCCTGGTAGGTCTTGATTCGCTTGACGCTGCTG	595 a.u.
GAATGAGATATACATGTGATTAATATCAGAAGGTAGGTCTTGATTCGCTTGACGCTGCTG	2760 a.u.
CTAAATCGACCTTATGATCATGTGGATTATCGGTTCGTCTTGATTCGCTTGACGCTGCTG	1450 a.u.
GAACAACAAACTTCCCACGTTACTCCTCGAGATTAGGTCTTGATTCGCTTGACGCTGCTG	587 a.u.
GAATAAAAAAATAAAAACGTGATCCGTACTTATTAGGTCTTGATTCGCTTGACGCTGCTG	2680 a.u.
GAAACACGTGAAAAGCACGTGAACAACAAAGCATAGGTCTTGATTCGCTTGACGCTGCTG	11900 a.u.
CTATGGTGCTTGAATCTGATGAGAAACTGAATGTTCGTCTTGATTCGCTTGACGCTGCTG	548 a.u.
GAACATATTCATAGGCACATCATGAATTTACTGTAGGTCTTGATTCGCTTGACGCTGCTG	503 a.u.
GAATCCTTGTACCAGCACATGGCCGAGCTTGAATAGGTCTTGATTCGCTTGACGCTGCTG	572 a.u.
GAATCAGACTAACATGATGTTAGCAACGAGAGTTAGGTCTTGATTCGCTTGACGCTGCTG	482 a.u.
GAAAAATAGCGACCGGACACCACGTAATGCAACTAGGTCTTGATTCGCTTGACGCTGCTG	501 a.u.
CTATACATTGAAAAGCACGTGACGTGACACCAATTCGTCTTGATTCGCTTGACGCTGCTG	17500 a.u.
TGTACGAAGCTATAATTCACCATTATAGTAGTTAGGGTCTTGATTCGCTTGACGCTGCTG	511 a.u.
CTATACTGATCAGGTGATGAGACGATAAAAACATTCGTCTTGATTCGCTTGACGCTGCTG	7010 a.u.

Sample 2
Target: RNA binding protein fox-1 homolog 2, RRM domain, GST-SBP tag (RBFOX2, Homo sapiens, UniProt O43251-10, residues 100-194)
Method: RNA Bind-n-Seq
Molecule type: RNA
Matrix: in vitro
Tested at: 365 nM
Notes: natural RNA segment, single round, ends assumed
Baseline: no-protein control
Reading: higher = stronger binding
Residues (chain): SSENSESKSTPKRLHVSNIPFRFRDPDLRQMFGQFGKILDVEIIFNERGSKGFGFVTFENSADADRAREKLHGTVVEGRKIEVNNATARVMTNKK
Sequence	RBNS enrichment (R)
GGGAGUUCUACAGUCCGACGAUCUGUGCCACCUCCCCUAUGAGUGACGUGUUUGAUCACUAGCAGAAUAGCAAGCAGAGUAUCAUUCAUGCUGGGGCCAGAAUGAUGGCCGGUUGCCAGAUAUAACUGCUUUGUGGAAUUCUCGGGUGCCAA	0.528
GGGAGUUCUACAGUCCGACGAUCAGUAUAUUCUGUAAAACAGAAUGCAGACGAUGUUAAGAAGGCUCUAGAUGGCGAACUUGAUGAAAAGUAUAAGAAGGUAGAAAGUUUAAUUGCCCAAAAAACUGAAGAGUUGGAAUUCUCGGGUGCCAA	0.621
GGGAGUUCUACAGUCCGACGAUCAAGCUCCCAGCUGGCCAUAGUGAAAAGAUUUCCCCUUUCAACCAGCAAAGUCUUCUGUUGGCCUUUGGAACAGGAGAGUCCCCGGAAUCUAGGACCCUAGUCUUUGUACUUGGAAUUCUCGGGUGCCAA	0.26
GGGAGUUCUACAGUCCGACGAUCGUACUACCCAUUCAUCUAUUGUAGAGUAACCCUUGUGACUCAAUAUUACCAUAGUGCGAUGUUGUUUUGUGCUAUUUUGAACAAUUAAAAAGACUUUUUUUGAAAUAACCUGGAAUUCUCGGGUGCCAA	0.843
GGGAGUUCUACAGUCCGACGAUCGAGCUUUCAUGCUCAGUUGGAAUCUAAUGAAAUAAAUUCUCUUAGCAUACAUUGUAAAUUUGUAUUGUUUUAAAUACAGUAUUGUUUGCUGAAGCAUUGUAAUCAAGUUUUGGAAUUCUCGGGUGCCAA	0.379
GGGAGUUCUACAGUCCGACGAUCGUUUCUCUGGAGAUUCCUGCAACCUCAAGAGACUUCCCAGGCGCUCAGGCCUGGAUCUUGCUCCUCUGUGAGGAACAAGGGUGCCUAAUAAAUACAUUUCUGCUUUAUUAUGGAAUUCUCGGGUGCCAA	0.2
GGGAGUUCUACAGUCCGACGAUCAAGUAGCUCUGGGGCCAUGUCUUGACUGGCUCCUAAUGGUGACUCCAGGCCAGCACUUGGUCAUUUGAGAACUGUCUUCUGUGUUCUCUGUGACUUAGGCUAGCCCUAGGUGGAAUUCUCGGGUGCCAA	0.369
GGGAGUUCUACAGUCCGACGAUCAGCCUGAUUUUUUUUCUGGUGUGUGUAAAAUACUUCCUAGGAAUACACUGGGCACUUUUGGAAAUAAUGUUUAAAUCAUUCAGGUUGUGUUCCUGUCCCCAAAACAGAUCUGGAAUUCUCGGGUGCCAA	0.438
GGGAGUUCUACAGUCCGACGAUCCCUGAAGACCCACUGAGGAAUUCCGUAGGGUCUUGUUCCCACGACCGGAGUGCUGGCUCUCACAGUGAAUUUUGAUGCAUUUAAAAUAAGAUUCUGAUGCCAGACUGUUAUGGAAUUCUCGGGUGCCAA	2.12

Sample 3
Target: Ras GTPase-activating protein-binding protein 1, C-terminal RGG region (G3BP1, Homo sapiens, UniProt Q13283)
UniProt Q13283, sequence (whole entry, looked up): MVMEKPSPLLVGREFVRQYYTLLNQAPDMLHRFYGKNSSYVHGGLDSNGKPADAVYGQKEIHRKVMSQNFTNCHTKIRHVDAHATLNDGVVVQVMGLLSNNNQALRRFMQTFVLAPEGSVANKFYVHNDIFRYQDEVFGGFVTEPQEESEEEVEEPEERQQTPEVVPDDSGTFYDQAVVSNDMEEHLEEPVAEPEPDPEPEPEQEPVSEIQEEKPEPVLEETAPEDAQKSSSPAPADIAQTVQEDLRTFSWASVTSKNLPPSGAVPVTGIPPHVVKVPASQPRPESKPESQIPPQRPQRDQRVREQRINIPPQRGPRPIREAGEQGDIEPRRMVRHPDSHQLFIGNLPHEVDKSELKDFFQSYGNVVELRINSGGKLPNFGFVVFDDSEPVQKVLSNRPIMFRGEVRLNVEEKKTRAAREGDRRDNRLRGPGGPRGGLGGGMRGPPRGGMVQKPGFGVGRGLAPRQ
Method: RNA Bind-n-Seq
Molecule type: RNA
Matrix: in vitro
Tested at: 1 µM
Notes: whole 134-nt RNA, ends assumed
Added: 150 mM KCl
Baseline: input library
Reading: higher = stronger binding
Sequence	log2 enrichment
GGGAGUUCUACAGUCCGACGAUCUGGGAGGUGGAUUUUGUUUAUUUUUUUCGCUCAUUUCCAGGGGUGGGAAUUUUUUUUUAAUAUGUGUCAUGAAUAAAGUUGUUUUUGAAAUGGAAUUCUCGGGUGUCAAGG	3.55
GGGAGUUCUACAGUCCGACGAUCAAGUCCUGUGCUACACAUCGUAUGUACCGAAUCGGGAGGGAAAAAGGGAAAAAGGGAAAGUAUUAUGUUACGCCGUUCGGAUCUGCACUUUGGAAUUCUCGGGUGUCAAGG	0.89
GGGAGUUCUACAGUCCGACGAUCAAGUCCUGUGCUACACAUCGUAUGUACCGAAUCGGUUUUUGGUUUGGUUUUUUUGGAAAGUAUUAUGUUACGCCGUUCGGAUCUGCACUUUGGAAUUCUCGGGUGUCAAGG	-1.96
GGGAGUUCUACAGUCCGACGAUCCAAGUCCUGUGCUACACAUCGUAUGUACCGAAUCGGGCCCGGGGCCCGGCCCGGGAAAGUAUUAUGUUACGCCGUUCGGAUCUGCACUUCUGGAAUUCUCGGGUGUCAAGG	-1.87
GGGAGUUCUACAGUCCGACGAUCAGUCCUGUGCUACACAUCGUAUGUACCGAAUCAAACCCCCCCAAAUUUAAACCCAAAAAAGUAUUAUGUUACGCCGUUCGGAUCUGCACUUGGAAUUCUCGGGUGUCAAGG	-0.832
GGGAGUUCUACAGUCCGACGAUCGCAGGAAGUAAAAACAAAUGGAAAUGCUUCGGAUAGUGCCAGGGGUGGGGGUUGCUAAGGAAAGGGUGGGAUGGGAGUGGGUAAAGAGUUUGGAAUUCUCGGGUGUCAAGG	0.746
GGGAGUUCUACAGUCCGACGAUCAAGUCCUGUGCUACACAUCGUAUGUACCGAAUCGGGAAAGGGGAAAGGGGAAAGGGGAAAGUAUUAUGUUACGCCGUUCGGAUCUGCACUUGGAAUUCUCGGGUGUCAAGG	1.23
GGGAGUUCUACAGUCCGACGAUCCACAGACAACACGCACCCACACAGACACAGAGGGAAGGGGUUGGGAUGGGGACAGGGUGCACUGCAGGGCGGGGUAGGACCCCAGCCCCUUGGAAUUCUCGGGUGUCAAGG	-0.647
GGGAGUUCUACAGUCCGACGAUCCUCAAGUCCUGUGCUACACAUCGUAUGUACCGAAUCGGAGGUUUGGUUUUUGGAAAGUAUUAUGUUACGCCGUUCGGAUCUGCACUUCCAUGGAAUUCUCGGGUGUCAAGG	-1.11
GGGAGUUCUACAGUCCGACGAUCCUGUGCUACACAUCGUAUGUACCGAAUCGGGGUUUUUGGGGAAAAAAAGGGGAAAAAGGGGAAAGUAUUAUGUUACGCCGUUCGGAUCUGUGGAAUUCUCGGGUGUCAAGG	0.129

Sample 4
Target: PABPC1L2, full length, GST fusion (mouse, UniProt A0ABA7IW68)
Method: RNAcompete
Molecule type: RNA
Matrix: in vitro
Tested at: 20 nM
Notes: 7-mer, probes averaged, single round
Baseline: mean of 7-mers
Reading: higher = stronger binding
Construct (chain): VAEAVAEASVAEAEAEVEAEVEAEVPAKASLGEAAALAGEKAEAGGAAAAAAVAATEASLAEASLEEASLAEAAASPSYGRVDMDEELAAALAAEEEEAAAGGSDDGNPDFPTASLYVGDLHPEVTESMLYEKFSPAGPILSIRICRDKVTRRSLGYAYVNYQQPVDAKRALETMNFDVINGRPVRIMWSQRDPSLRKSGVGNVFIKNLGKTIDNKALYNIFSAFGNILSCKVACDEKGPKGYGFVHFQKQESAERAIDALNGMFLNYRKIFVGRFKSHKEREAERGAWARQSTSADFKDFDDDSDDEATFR
Sequence	7-mer Z-score
UAUGCGC	-0.0953
CUAACGG	-0.177
GCCGAGA	-0.05
CCCGGCA	-0.325
CACCUGU	-0.405
CAGACUG	-0.159
CUGUGAA	-0.0609
AUGAACA	0.222
UGAACAA	0.512
AGGCUGG	0.331
CUAUUGU	-0.443
GGGCUCG	0.0787
UCGUGGU	-0.313
UCUGGGU	-0.168
AGUAUAG	-0.0264
GCUUUAG	-0.0518
ACGGACU	0.0424
CCAUGCU	-0.338
GUUACGC	-0.277
CCCGUUG	-0.507
AGGCUAG	0.173

A few entries again (sample 4):
Sequence	7-mer Z-score
CUAACGG	-0.177
GCCGAGA	-0.05
CCCGGCA	-0.325
CACCUGU	-0.405
CAGACUG	-0.159
CUGUGAA	-0.0609
AUGAACA	0.222
UGAACAA	0.512
AGGCUGG	0.331
